Experimental data of several laboratories.
Each line is one published result; not all experiments were run side by side.
MAP3K20: Mitogen-activated protein kinase kinase kinase 20 (MAP3K20, Homo sapiens, UniProt Q9NYL2)
MAP3K20 Cys22: Mitogen-activated protein kinase kinase kinase 20, Cys22 (MAP3K20, Homo sapiens, UniProt Q9NYL2)

CCn1cc(C(=O)O)c(=O)c2c(N)c(F)c(NC3CCCCC3)cc21  inhibition (MAP3K20; kinase activity; 0.1 µM, added: ATP at Km): -5.7%
CC(C)=CC1OC(C)(C)C2C=C3C(=O)C(Cl)=CC(O)C3C3C(O)C4OC4C(=O)C132 (stereo not shown)  remaining binding (MAP3K20; cell-free assay, competition with immobilised ligand; 10 µM): 92%
CNC(=O)C1CCN(c2cc(C)c(F)cc2NC(=O)c2ccc(-c3cc(O)ccc3C)c(C)c2)CC1  remaining binding (MAP3K20; binding, competition with immobilised ligand; 1 µM): 93%
CCN1CCN(Cc2ccc(NC(=O)c3ccc(C)c(NC(=O)c4cncc(-c5cnn(C)c5)c4)c3)cc2C(F)(F)F)CC1  remaining binding (MAP3K20; binding, competition with immobilised ligand; 1 µM): 4.5%
C[C@H]1CN(C(=O)c2cn(-c3ccnc(N)n3)c3cc(C#CC4(O)CCCCC4)ccc23)CCN1  inhibition (MAP3K20; cell-free assay, TR-FRET; 1 µM): -1%
CNC(=O)C[C@H](Cc1ccc(C#N)cc1)NC(=O)c1cc(-c2ccc(CN[C@H](C)c3ccc(C)cc3)o2)ccc1Cl  activity vs control (MAP3K20; enzyme activity, inhibitor; 1 µM): 111%
CN1CC[C@@H](COc2cnc(C#N)cc2-c2ccn3nc(NC(=O)C4CC4)cc3c2)C1  inhibition (MAP3K20; enzyme activity, inhibitor; 1 µM): 17%
C=CC(=O)Nc1cc(-c2nn(C3CCN(CCNC(=O)[C@H](C)CCC45CC6CC(CC(C6)C4)C5)CC3)c3ncnc(N)c23)ccc1Oc1ccccc1  inhibition (MAP3K20; inhibitor, KiNativ profiling; biochemical; 2 µM): 24.9%
Cc1cnc2nc1Nc1cccc(c1)COC/C=C/COCc1cc(ccc1OCCN1CCOCC1)N2  remaining binding (MAP3K20; binding, competition with immobilised ligand; 0.1 µM): 100%
COc1c(Cl)cccc1Nc1c(-c2ccncc2C#C[C@@]2(C)CCCN2C(=O)/C=C/CN(C)C)[nH]c2c1C(=O)NCC2  remaining binding (MAP3K20; binding, competition with immobilised ligand; 3 µM): 84%
CCCCCCCCCCCCC/C=C/C=O  isoTOP-ABPP competition ratio (MAP3K20 Cys22; competitive isoTOP-ABPP; proteome, soluble, MDA-MB-231; 100 µM, 60 min, added: iodoacetamide probe; baseline: DMSO over compound-treated, higher = stronger cysteine blockade): 1.1
O=C(Cc1ccc(OCc2ccccc2)cc1)NC1(C(=O)O)CCN(C(=O)c2ccc(-c3cccc(Cl)c3)cc2)CC1  activity vs control (MAP3K20; enzyme activity, inhibitor; 10 µM): 93%
COc1cc(Nc2nc(C)cc(-c3cnn4nc(OC)ccc34)n2)cc(C(F)(F)F)c1  remaining binding (MAP3K20; binding, competition with immobilised ligand; 1 µM): 77%
Nc1ncc(-c2cc(-c3cnn(CC(F)(F)F)c3)ncc2F)nc1C(=O)NC1CNCC(F)C1 (stereo not shown)  remaining activity (MAP3K20; enzyme activity; 1 µM; baseline: DMSO control): 102%
CCCCCC=CC=C1C(=O)C=CC1CC=CCCCC(=O)O (stereo not shown)  isoTOP-ABPP competition ratio (MAP3K20 Cys22; competitive isoTOP-ABPP; proteome, soluble, MDA-MB-231; 100 µM, 60 min, added: iodoacetamide probe; baseline: DMSO over compound-treated, higher = stronger cysteine blockade): 3.6
NC(=O)C[C@H]1CCc2sc3ncnc(O[C@H]4CC[C@H](N5CCOCC5)CC4)c3c21  inhibition (MAP3K20; enzyme activity, inhibitor; 10 µM): 5%
